Measurements collected from several papers.
Each numbered part is a random draw from the data of one study; scales do not carry over between parts.

Block 1
Target: PABPC1L2, full length, GST fusion (mouse, UniProt A0ABA7IW68)
Method: RNAcompete
Molecule type: RNA
Sample: in vitro
Tested at: 20 nM
Notes: 7-mer, probes averaged, single round
Reference: mean of 7-mers
Direction: higher = stronger binding
Target sequence (chain): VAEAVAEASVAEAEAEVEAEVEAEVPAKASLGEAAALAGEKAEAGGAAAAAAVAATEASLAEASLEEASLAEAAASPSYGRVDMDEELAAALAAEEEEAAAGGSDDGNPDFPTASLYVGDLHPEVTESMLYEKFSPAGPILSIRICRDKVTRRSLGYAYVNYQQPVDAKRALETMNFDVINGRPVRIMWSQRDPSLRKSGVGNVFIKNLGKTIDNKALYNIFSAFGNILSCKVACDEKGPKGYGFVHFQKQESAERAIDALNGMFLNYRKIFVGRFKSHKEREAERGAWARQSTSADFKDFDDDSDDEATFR
For `CUAACAU`, the 7-mer Z-score was -0.26.
With `GUUAUUG` the 7-mer Z-score was -0.209.
`UAGUUCA` has a 7-mer Z-score of -0.287.
For `AGGUCAC`, the 7-mer Z-score was 0.0406.
For `GCUCUGA`, the 7-mer Z-score was -0.264.
`UAGGAGU` has a 7-mer Z-score of -0.22.
For `CCUUAUG`, the 7-mer Z-score was -0.322.
With `CGUUCGC` the 7-mer Z-score was -0.519.
For `AGUCUAC`, the 7-mer Z-score was -0.318.
`GCCAUGA` has a 7-mer Z-score of -0.0881.
`UCAUAAU` has a 7-mer Z-score of -0.318.
The 7-mer Z-score of `CGCGGAU` is reported as -0.17.
The 7-mer Z-score of `GACUAAC` is reported as -0.106.
`CUUCCAU` gave a 7-mer Z-score of -0.407.
For `AAAGCAC`, the 7-mer Z-score was 0.782.
The 7-mer Z-score of `CUUAGCA` is reported as -0.293.
`CCUUGGU` gave a 7-mer Z-score of -0.24.

Block 2
Target: Eukaryotic initiation factor 4A-I (EIF4A1, Homo sapiens, UniProt P60842, residues 1-406, full length assumed)
Chain of UniProt P60842 (whole entry, looked up): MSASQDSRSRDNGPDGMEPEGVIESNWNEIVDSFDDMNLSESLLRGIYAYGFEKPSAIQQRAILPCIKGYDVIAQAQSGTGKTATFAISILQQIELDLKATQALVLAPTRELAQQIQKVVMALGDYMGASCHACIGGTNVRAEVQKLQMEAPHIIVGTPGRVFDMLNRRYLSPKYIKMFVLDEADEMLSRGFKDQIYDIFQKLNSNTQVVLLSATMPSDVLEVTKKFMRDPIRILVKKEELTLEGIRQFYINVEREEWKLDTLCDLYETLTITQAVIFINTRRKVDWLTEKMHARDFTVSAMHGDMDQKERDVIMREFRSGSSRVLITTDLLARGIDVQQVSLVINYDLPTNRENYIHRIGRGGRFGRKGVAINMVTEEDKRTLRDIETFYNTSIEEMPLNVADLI
Method: RNA Bind-n-Seq
Molecule type: RNA
Sample: in vitro
Tested at: not given
Notes: 4-mer, random 30-nt RNA, single round
Added: RocA, ADP, phosphate
Reference: input library
Direction: higher = stronger binding
`UAGG` has a 4-mer enrichment of 1.12 fold.
For `AACU`, the 4-mer enrichment was 0.698 fold.
For `GAAC`, the 4-mer enrichment was 0.989 fold.
The 4-mer enrichment of `CCAA` is reported as 0.67 fold.
`CCUC` gave a 4-mer enrichment of 0.503 fold.
For `GUUC`, the 4-mer enrichment was 0.707 fold.
With `ACAU` the 4-mer enrichment was 0.716 fold.
The 4-mer enrichment of `UUUU` is reported as 1 fold.
With `CUCU` the 4-mer enrichment was 0.444 fold.
`CCGA` gave a 4-mer enrichment of 0.822 fold.
For `AAGA`, the 4-mer enrichment was 1.93 fold.
`UGUU` gave a 4-mer enrichment of 0.963 fold.
For `CGGC`, the 4-mer enrichment was 0.641 fold.
With `CUUA` the 4-mer enrichment was 0.638 fold.
The 4-mer enrichment of `UUUG` is reported as 1.11 fold.
`ACCC` gave a 4-mer enrichment of 0.64 fold.
The 4-mer enrichment of `CUUU` is reported as 0.625 fold.
The 4-mer enrichment of `UCGC` is reported as 0.577 fold.
For `UAUA`, the 4-mer enrichment was 0.937 fold.
`UUCU` has a 4-mer enrichment of 0.578 fold.
With `AGCU` the 4-mer enrichment was 0.961 fold.
For `UAAC`, the 4-mer enrichment was 0.687 fold.
`CGUU` gave a 4-mer enrichment of 0.758 fold.
With `AUGC` the 4-mer enrichment was 0.701 fold.
With `AGAA` the 4-mer enrichment was 2.13 fold.

Block 3
Target: Phosphate system positive regulatory protein PHO4, full length, GST-tagged (PHO4, Saccharomyces cerevisiae, UniProt P07270, residues 1-312)
Method: competition protein-binding microarray
Molecule type: double-stranded DNA, one strand shown
Sample: in vitro
Tested at: 2 µM
Notes: whole 60-bp probe, lowest competitor level
Added: Cbf1 competitor, 0.05 µM
Direction: higher = stronger binding
Constant ends, left off below: … GTCTTGATTCGCTTGACGCTGCTG
Target sequence (chain): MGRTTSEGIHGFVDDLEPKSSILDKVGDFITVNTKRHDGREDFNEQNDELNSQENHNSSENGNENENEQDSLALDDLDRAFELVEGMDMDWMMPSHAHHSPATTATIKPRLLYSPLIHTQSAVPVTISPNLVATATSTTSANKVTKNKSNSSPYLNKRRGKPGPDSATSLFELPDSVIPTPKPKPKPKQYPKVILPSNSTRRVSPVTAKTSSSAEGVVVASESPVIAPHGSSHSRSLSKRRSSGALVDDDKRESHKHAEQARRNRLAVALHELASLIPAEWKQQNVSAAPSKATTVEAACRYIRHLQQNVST
`CGTCCTAGTGATTGTGGGGTGGGTGCCATGAGGAAG` has a fluorescence intensity of 6670 a.u.
`CGGGGTTAAGTTTGTTACGTGGGTGGCTTGCAGCAG` gave a fluorescence intensity of 6400 a.u.
With `TTGCTGGTTACCCTGCATGTGATATTTGATTACATA` the fluorescence intensity was 7980 a.u.
`TGCGCAACAACTTGTTACGTGGGTGTATGTCTAGAA` has a fluorescence intensity of 6650 a.u.
For `AAATCAATGGGCTCAGCTCATCTTGAAAAGCTCACT`, the fluorescence intensity was 2230 a.u.
`CCCTTGATTTCTGCCTGTGTGATATTAAATAATTGT` has a fluorescence intensity of 4540 a.u.
`GGCAATGGTGGCCGCTGCGTGCGATGTCTGGTGTAG` gave a fluorescence intensity of 9300 a.u.
`ATGGGTACCACAAAGCGAGGTCGCTTTTGAAGAGCC` gave a fluorescence intensity of 3740 a.u.
The fluorescence intensity of `GAGAGAATGAACCATCACGTGTGAACCCAAAAGGCC` is reported as 15200 a.u.
With `CTTTCCCGATCTTGGGGGGTGGGTGTAGCACATTTG` the fluorescence intensity was 6420 a.u.
The fluorescence intensity of `ATGGCTATACCGAGTCACGTTTAGGTAATTTGTTTG` is reported as 8980 a.u.
For `CCCGCGACTCTAAAGCACGGGATTGAAGTCAGCTTC`, the fluorescence intensity was 8670 a.u.
The fluorescence intensity of `TGCGCAACAACTTGTACAGTGGGTGTATGTCTAGAA` is reported as 4490 a.u.
The fluorescence intensity of `CTTTCCCGATCTTGTCACCAAACTTTAGCACATTTG` is reported as 3630 a.u.
`AACTTTGAGCTTCCTCACGTGGAACATAAGATAGAT` has a fluorescence intensity of 15900 a.u.
`CTGGCGTACGACATGAACGTGGTGAGCTCTCTTGTG` gave a fluorescence intensity of 10600 a.u.
`CATACCCAACCTTGGCTGGTGGGTGAAGATATTTGT` gave a fluorescence intensity of 3580 a.u.
`TAAAGTGCCCGCCATCACGTCACTTCTTCCTACAGA` has a fluorescence intensity of 4160 a.u.
With `TATCACCCTTTAGGAGCCGTGATGGAGAAGACTACC` the fluorescence intensity was 4250 a.u.
`CTATAGGATAACCATCACGGCTAAAACGGTCGAATG` gave a fluorescence intensity of 4000 a.u.
`ATGGGTCTGTTTACTCATGTGACGCTCTATGCGCTG` has a fluorescence intensity of 5910 a.u.

Block 4
Target: RING finger protein unkempt homolog, zinc fingers 1-6, GST-SBP tag (UNK, Homo sapiens, UniProt Q9C0B0, residues 30-357)
Chain of UniProt Q9C0B0 (30-357, looked up): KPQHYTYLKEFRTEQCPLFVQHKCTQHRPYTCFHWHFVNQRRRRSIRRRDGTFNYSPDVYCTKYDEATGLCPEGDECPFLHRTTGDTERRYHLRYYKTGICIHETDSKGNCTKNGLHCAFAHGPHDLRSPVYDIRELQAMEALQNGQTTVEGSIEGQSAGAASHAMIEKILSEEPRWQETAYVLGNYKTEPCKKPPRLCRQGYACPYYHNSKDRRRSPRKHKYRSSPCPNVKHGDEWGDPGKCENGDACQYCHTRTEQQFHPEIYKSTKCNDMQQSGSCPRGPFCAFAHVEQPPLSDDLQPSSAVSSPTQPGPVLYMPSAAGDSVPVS
Method: RNA Bind-n-Seq
Molecule type: RNA
Sample: in vitro
Tested at: not given
Notes: RNA with constant flanks, human-mouse chimeric sites, ends assumed
Reference: input RNA pool
Direction: higher = stronger binding
Constant ends, left off below: GGGAGUUCUACAGUCCGACGAUC … CAACAGAGGAUUGAGCAUCA
With `GGUGGGGUGGUCAUUGCCGUUUGAGCUGCUGAUUUUCAUGAGUCGCCUUCAAAACUCUCGUGUAGGGUUGACAAUGUGGGGGGGUGGGGGAUCCAGCUAUUUUUUUUAUUUUCAAGUCCA` the bound/input enrichment was 2.15 ratio.
With `CACAGAGGAGAUCUGCUGUUCCUCACGAAUUUCCGGGAGGACCCCAUCAGAGCUGGUGAAAUAGUUGUUUUUAAGGUUGAAGGAAGAGACAUUCCAAUAGUUCACAGAGUAAUCAAGGUU` the bound/input enrichment was 4.04 ratio.
The bound/input enrichment of `GGCCUGGACCUUCCUGGGGCUAGUACAAAUAGCGGCAGUGGAGGCUCGAGAGGAAAGUUUGUUAGUGGAGGCAGUGGUAGAGGCCGUCAUGUACGGUCCUUUACUCGUAAAAAUCCUUCU` is reported as 0.203 ratio.
With `UGUGCCCUGAUGGCAGCUACCUGAGUGGCAGCUGAAGUUGACUCCCUCUCCUUGCCUGAACCCCCCCCCACUGCCCCCCCAUCCCCCAGUGUCGGCUGAGAUGUUGCCUCUGCACGGUUC` the bound/input enrichment was 1.32 ratio.
`AACUUCGUGCAUCGGUUUCCCUUUGUAGCUGUUUCAAUUGGCUUCCUUGUAAAUAAAGAGAUGGAGUUUGGAAUUGUGUACAGCUGUGUGGAAGGCAAGAUGUACACCGGCAGGAAAGGG` gave a bound/input enrichment of 0.325 ratio.
`GGGACUGAUUCAUCCCAAGGACAGGCCACCCCAUUUGAUGCCUGGACUGAUGACAGUAUGUUAGGGCCUAGUCAAAAUGUUGAAGCUGAGUCAAUUCAGGAUGCCAUGCAUAUGGCAGAG` gave a bound/input enrichment of 0.419 ratio.
The bound/input enrichment of `CAGCCUCAGAGCCCAGACUUCCUGGACAUUACCAACCCUAAAGCGGUAUUAGAAAAUGCAUUGAGAAACUUCGCCUGUCUGACGACUGGAGAUGUGAUUGCCAUCAACUACAAUGAGAAG` is reported as 0.407 ratio.
With `GUACUGCAACAGCAGGGAAAACUGCAGGAAGCUCUGAUGCACUAUAAGGAGGCUAUUCGAAUCAGUCCUACCUUUGCUGAUGCCUACUCUAAUAUGGGAAACACUCUAAAGGAGAUGCAG` the bound/input enrichment was 0.154 ratio.
`ACCAUUUUCGCGGUUCAGGCUUUGUGUGUAGUUCACUCUAUGUAUUAAAUUAUUAUUCUGCUUAGCUUAAAGUAAGGAUAAUUGCAUUUAAAGAGGUUACUGAAUGUUACUCUGAAACUU` has a bound/input enrichment of 0.224 ratio.
For `AAAUCGUGUGUGUCCAAUAUUGAAAGUGCUUUAUCUACACUCCAAUAUGUAAGCAGUAUAGUAGUUUCUUUAGAGAAUAGGUCAGCCAUUGUAAAGUACAAUGCAAGCUCAGUCACUCCA`, the bound/input enrichment was 41.2 ratio.
`AAAGAACUACUGAGGCAAGGCAGCAAAUUUAGAAGAAAUGUAUCAACAAUAUUGAUAGAGUUAGGAUUCCAAAUUAAAAAGAAAACUAAGACAUUAUACAUCAACAAAGCCAAUGUGUGG` gave a bound/input enrichment of 10.3 ratio.

Block 5
Target: Histone acetyltransferase KAT6A, both winged helices, GST fusion (KAT6A, Homo sapiens, UniProt Q92794, residues 1-181)
Method: protein binding microarray
Molecule type: double-stranded DNA, one strand shown
Sample: in vitro
Tested at: not given
Notes: 8-mer, flanks averaged, mean of 2 arrays, mostly near background
Reference: not given
Direction: higher = stronger binding
Residues (chain): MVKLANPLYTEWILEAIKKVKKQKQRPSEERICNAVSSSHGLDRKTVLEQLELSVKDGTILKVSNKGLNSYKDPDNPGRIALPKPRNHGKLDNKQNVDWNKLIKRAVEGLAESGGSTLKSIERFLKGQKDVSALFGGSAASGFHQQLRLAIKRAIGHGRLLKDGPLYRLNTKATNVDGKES
For `AGTTTGCA`, the E-score was -0.14.
For `AACATTCC`, the E-score was -0.00741.
`GCAAAGAA` gave an E-score of 0.0366.
`TCCGATAA` gave an E-score of 0.0875.
The E-score of `GATACGGC` is reported as 0.318.
`ATACCAAG` gave an E-score of 0.0226.
For `CCCCCCAC`, the E-score was -0.356.
`CTTTACTC` gave an E-score of -0.0662.
`GGGGAGTA` has an E-score of -0.0872.
`CATTCAGG` gave an E-score of -0.144.
With `CGGGAACC` the E-score was 0.229.
With `CACGGCTG` the E-score was 0.207.
For `GAAGTCAA`, the E-score was -0.0529.
With `CACGCCAG` the E-score was 0.0237.
With `AACCATAT` the E-score was -0.143.
With `GAAGGTTA` the E-score was -0.00928.
`AAACATGC` has an E-score of 0.0174.
`CGACACCG` gave an E-score of 0.248.
`CGCATGTC` gave an E-score of 0.208.
For `ACGGGGTC`, the E-score was 0.271.
The E-score of `CATGATGA` is reported as -0.132.
For `AGTTGTTG`, the E-score was -0.229.
`CTGCGCAC` gave an E-score of 0.147.
The E-score of `ACACCTCG` is reported as -0.00886.
`GCCGCAAA` has an E-score of 0.236.
